Experimental data from different studies.
Every numbered part comes from another study and shows a few of its results, in no order. Substitutions count along the parent as printed.

Block 1
Target: Myc proto-oncogene protein, bHLH-zipper, MAX partner unstated (MYC, Homo sapiens, UniProt P01106, residues 368-449)
UniProt P01106, sequence (368-449, looked up): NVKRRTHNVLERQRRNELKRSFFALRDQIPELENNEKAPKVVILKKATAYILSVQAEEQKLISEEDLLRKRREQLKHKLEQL
Technique: protein-binding microarray
Molecule type: double-stranded DNA, one strand shown
Matrix: in vitro
Concentration: not given
Setting: k-mer, scored over probes, only values ≥0.25
Reading: higher = stronger binding
The E-score of `AACACGAG` is reported as 0.433.
The E-score of `AGCAGATG` is reported as 0.292.
`GGTGACAC` has an E-score of 0.275.
`CATGTCAG` gave an E-score of 0.282.
For `CCATGCAG`, the E-score was 0.41.
For `AAAATGTG`, the E-score was 0.292.
For `GCGTGGCC`, the E-score was 0.44.
`CGCGCGCA` gave an E-score of 0.267.
The E-score of `GCATGCCC` is reported as 0.378.
For `ACATGAGG`, the E-score was 0.426.
`CACGCCGG` has an E-score of 0.402.
`CCACACGA` has an E-score of 0.335.
With `AACATGCT` the E-score was 0.346.
The E-score of `CATGGTTC` is reported as 0.322.
For `ACCGCGCA`, the E-score was 0.254.
With `TCGTGCCA` the E-score was 0.31.
With `GTGGCAAA` the E-score was 0.269.
With `CACGCTCA` the E-score was 0.296.
`ACACGCAT` has an E-score of 0.381.
`CGACCTCA` has an E-score of 0.275.
`ACATGGTC` gave an E-score of 0.397.

Block 2
Target: Histone acetyltransferase KAT6A, winged helix 1, GST fusion (KAT6A, Homo sapiens, UniProt Q92794, residues 1-85)
Technique: protein binding microarray
Molecule type: double-stranded DNA, one strand shown
Matrix: in vitro
Concentration: not given
Setting: 8-mer, flanks averaged, mean of 2 arrays, mostly near background
Baseline: not given
Reading: higher = stronger binding
Construct (chain): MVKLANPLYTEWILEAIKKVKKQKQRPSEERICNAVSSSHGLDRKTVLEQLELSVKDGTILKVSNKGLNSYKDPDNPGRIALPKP
For `AGATTATC`, the E-score was -0.0977.
For `CATACAAA`, the E-score was -0.0622.
The E-score of `ACCCCGAG` is reported as 0.0227.
With `CTTTACCC` the E-score was 0.0429.
`ACAACTGA` has an E-score of -0.13.
The E-score of `AAATACGG` is reported as 0.00615.
With `GATGTAGC` the E-score was 0.0375.
`ATAAAGCA` gave an E-score of -0.188.
For `CCAAGTAA`, the E-score was -0.0428.
`ATCCCATC` has an E-score of -0.22.
For `CACATGCG`, the E-score was 0.181.
The E-score of `CAAGCAAC` is reported as -0.103.
With `GTCAGGAA` the E-score was -0.128.
`ATTCTGGC` has an E-score of -0.0602.
With `CTGTCTGC` the E-score was -0.145.
For `CTGCTCGA`, the E-score was -0.26.
`GAATAGAA` gave an E-score of -0.239.
`GGCCTAAA` has an E-score of 0.0943.
The E-score of `TCATTAGA` is reported as -0.0869.
`TCGTTCCA` gave an E-score of -0.183.
For `ACATGATC`, the E-score was -0.0615.
With `ACGTGGTA` the E-score was -0.246.
With `CAGCATTC` the E-score was -0.15.
With `TGCCCCCA` the E-score was -0.153.

Block 3
Target: CCND1, cyclin fold, Cln2 fusion (human)
Technique: yeast growth competition, sequencing
Matrix: yeast
Setting: weak parent motif
Baseline: not given
Reading: higher = stronger binding
Parent: CDKN1C docking peptide (human); TSACRSLFGPVDH; partner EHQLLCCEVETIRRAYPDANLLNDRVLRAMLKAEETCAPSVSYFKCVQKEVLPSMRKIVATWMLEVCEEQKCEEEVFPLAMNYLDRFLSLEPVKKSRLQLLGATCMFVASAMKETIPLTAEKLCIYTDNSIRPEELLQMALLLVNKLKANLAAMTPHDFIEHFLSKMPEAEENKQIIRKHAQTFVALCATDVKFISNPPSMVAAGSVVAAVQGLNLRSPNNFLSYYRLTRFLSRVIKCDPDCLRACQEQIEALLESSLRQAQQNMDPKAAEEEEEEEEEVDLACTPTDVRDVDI
For `C4A`, “normalised enrichment score” read 0.403.
`R5K` — result for “normalised enrichment score”: 0.106.
`H13A`: “normalised enrichment score” 0.605.
`T1A`: “normalised enrichment score” 0.865.
For `F8A`, “normalised enrichment score” read 0.27.
`L7A`: “normalised enrichment score” 0.00461.
`P10A`: “normalised enrichment score” 0.91.

Further values, each from its own experiment
The fold induction of `PhoQ, residues 284 288 289 292 302 303 SQSLSM` is reported as 10.2 (PhoP, residues 12 14 15 18 19 NFCKL (Escherichia coli, UniProt P23836); Sort-seq, measured: YFP reporter; E. coli; PhoQ-PhoP variant library, added: 10 µM Mg2+; baseline: high Mg2+ state, higher = stronger signaling).
